Experimental data of several laboratories.
± gives the spread as reported.

For `CC[C@H](C)[C@H](NC(=O)[C@H](Cc1c[nH]cn1)NC(=O)[C@H](CC(N)=O)NC(=O)[C@@H](N)[C@@H](C)O)C(=O)N[C@@H](Cc1ccc(OP(=O)(O)O)cc1)C(=O)N[C@@H](CO)C(=O)N[C@@H](CC(N)=O)C(=O)N[C@@H](CC(C)C)C(=O)N[C@@H](C)C(=O)N[C@@H](CC(N)=O)C(=O)N[C@@H](CS)C(=O)N[C@@H](CO)C(=O)N[C@@H](CC(=O)O)C(=O)O`, the Kd was ~1000 nM (SH2 domain-containing protein 1B, SH2 domain (SH2D1B, Homo sapiens, UniProt O14796); binding, fluorescence polarization; phosphopeptide probe).
With `C[C@H](N)C(=O)N[C@@H](CCCNC(=N)N)C(=O)N[C@H](C(=O)N[C@@H](CCCC[N+](C)(C)C)C(=O)N[C@@H](CCC(N)=O)C(=O)N[C@H](C(=O)N[C@@H](C)C(=O)N[C@@H](CCCNC(=N)N)C(=O)N[C@@H](CCCCN)C(=O)N[C@@H](CO)C(=O)N[C@H](C(=O)NCC(=O)O)[C@@H](C)O)[C@@H](C)O)[C@@H](C)O` the Kd was ~640 nM (MORC family CW-type zinc finger protein 3, CW domain (MORC3, Homo sapiens, UniProt Q14149); binding, tryptophan fluorescence).
The Kd of `O=C1c2ccc(O)cc2-c2c(-c3ccc(O)cc3)oc3cc(O)cc1c23` is reported as 130 nM (Heat shock protein HSP 90-alpha, middle domain (HSP90AA1, Homo sapiens, UniProt P07900); binding, fluorescence polarization; middle domain fragment).
The Kd of `COc1c2[nH]c(=O)c(=O)c2c(OC)c2c(=O)c3ccccc3c(=O)c12` is reported as 10500 nM (Aurora kinase A (AURKA, Homo sapiens, UniProt O14965); binding, BLI).
`NC(Cc1ccc(F)cc1)C(=O)O` (racemic) gave a Kd of 600000 nM (grsA (Aneurinibacillus migulanus, UniProt P0C061); binding, ITC).
For `Cc1nn(CCO)c2ncc(C(=O)c3cc(Cl)ccc3O)cc12`, the Kd was 3350 nM (Heat shock protein 90, N-terminal domain (Plasmodium falciparum, UniProt Q8IC05); binding, SPR).
The Kd of `CC(C)C[C@H](NC(=O)[C@@H](NC(=O)[C@H](CC(C)C)NC(=O)[C@H](CS)NC(=O)CNC(=O)[C@H](CO)NC(=O)[C@H](CCCCN)NC(=O)[C@H](CCCCN)NC(=O)[C@H](CCCCN)NC(=O)CNC(=O)[C@H](CCCNC(=N)N)NC(=O)[C@H](CCCNC(=N)N)NC(=O)[C@H](C)NC(=O)c1ccc2c(c1)C(=O)OC21c2ccc(O)cc2Oc2cc(O)ccc21)C(C)C)C(=O)O` is reported as 56 ± 8 nM (geranylgeranyltransferase type-I (Rattus norvegicus, UniProt P53610+Q04631); binding, fluorescence anisotropy; together with: GGPP 1 µM).
For `CN(C)CCCSC(=S)N1CCN(C(=O)/C=C/c2coc3ccccc3c2=O)CC1`, the Kd was 7600 nM (Nucleoprotein (N, Tomato spotted wilt virus, UniProt P25999); binding, biolayer interferometry; wild-type nucleocapsid protein).
With `CNC(=N)NCCC[C@H](NC(=O)[C@H](C)N)C(=O)N[C@H](C(=O)N[C@@H](CCCCN)C(=O)N[C@@H](CCC(N)=O)C(=O)N[C@H](C(=O)N[C@@H](C)C(=O)N[C@@H](CCCNC(=N)N)C(=O)N[C@@H](CCCCN)C(=O)N[C@@H](CO)C(=O)O)[C@@H](C)O)[C@@H](C)O` the Kd was 199000 ± 12400 nM (Autoimmune regulator, PHD1 domain (AIRE, Homo sapiens, UniProt O43918); binding, isothermal titration calorimetry; pH 7.2, 23 °C, together with: AIRE PHD1 wild type).
For `C=CC(=O)N1C[C@H](C)N(c2nc(OC[C@@]34CCCN3C[C@H](F)C4)nc3c(F)c(-c4ccc(F)c5sc(N)c(C#N)c45)c(C(F)(F)F)cc23)C[C@H]1C`, the Kd was 4600 nM (Cyclin-dependent kinase 8 (CDK8, Homo sapiens, UniProt P49336); binding, competition with immobilised ligand).
`COc1cc(C2CC(=O)Nc3nc(N)[nH]c(=O)c32)ccc1O` (stereo not drawn) gave a Kd of 2500 nM (uncharacterized protein (Leishmania donovani, UniProt A0A3Q8IA09); competitive ITC; together with: glutamate 60 µM).
`COc1ccc(C(=O)Nc2cc(-c3ccc(I)cc3)no2)cc1` [iodine-125 labelled] has a Kd of 0.48 ± 0.08 nM (Alpha-synuclein, fibrils (SNCA, Homo sapiens, UniProt P37840); radioligand, radioligand saturation binding; SNCA 50 nM).

Repeated from above:
For `C=CC(=O)N1C[C@H](C)N(c2nc(OC[C@@]34CCCN3C[C@H](F)C4)nc3c(F)c(-c4ccc(F)c5sc(N)c(C#N)c45)c(C(F)(F)F)cc23)C[C@H]1C`, the Kd was 4600 nM (Cyclin-dependent kinase 8 (CDK8, Homo sapiens, UniProt P49336); binding, competition with immobilised ligand).
